Measured values of several laboratories.
Numbered parts are unrelated; each lists some results of a single study. Substitutions count along the parent as printed.

Block 1
Target: Ras GTPase-activating protein-binding protein 1, full length (G3BP1, Homo sapiens, UniProt Q13283)
UniProt Q13283, sequence (whole entry, looked up): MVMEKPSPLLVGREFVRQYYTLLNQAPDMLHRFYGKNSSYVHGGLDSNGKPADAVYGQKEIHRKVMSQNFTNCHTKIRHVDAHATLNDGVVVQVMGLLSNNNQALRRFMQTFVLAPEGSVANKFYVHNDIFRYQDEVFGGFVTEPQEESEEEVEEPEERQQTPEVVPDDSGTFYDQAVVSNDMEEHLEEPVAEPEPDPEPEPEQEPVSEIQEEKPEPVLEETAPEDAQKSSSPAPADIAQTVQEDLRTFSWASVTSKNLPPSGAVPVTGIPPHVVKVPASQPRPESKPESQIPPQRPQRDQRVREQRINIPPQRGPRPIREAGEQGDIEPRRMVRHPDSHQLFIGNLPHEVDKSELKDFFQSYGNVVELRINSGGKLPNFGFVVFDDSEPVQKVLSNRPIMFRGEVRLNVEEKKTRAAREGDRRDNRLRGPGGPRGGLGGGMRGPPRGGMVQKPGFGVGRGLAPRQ
Method: RNA Bind-n-Seq
Form: RNA
Sample: in vitro
Concentration: 200 nM
Notes: whole 134-nt RNA, ends assumed
Added: 150 mM KCl
Reference: input library
Direction: higher = stronger binding
With `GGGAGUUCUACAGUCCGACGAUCUUAUGGAGUUUGGCCCUGAGGACAUGCUGCUGGGCAUGGAUGAGGCUGAAGAUGAUGAGGACCUGGAGGCUGAGCUGCUGGCUCUCACAGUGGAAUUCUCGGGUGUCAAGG` the log2 enrichment was -0.474.
`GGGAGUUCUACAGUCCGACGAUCUGGCCCUGGUGGCAUGCGGGGAGGAAGAGGUGGCCUCAUUGAUCGUGGUGGUCCCGGUGGAAUGUUCAGAGGUGGCCGUGGUGGAGACAGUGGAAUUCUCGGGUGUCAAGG` has a log2 enrichment of 0.331.
With `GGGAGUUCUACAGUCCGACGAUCGCAGGAAGUAAAAACAAAUGGAAAUGCUUCGGAUAGUGGCAGGGGUGGGGGUUGCUAAGGAAAGGGUGGGAUGUGAGUGGGUAAAGAGUUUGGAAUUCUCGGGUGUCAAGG` the log2 enrichment was 0.857.
`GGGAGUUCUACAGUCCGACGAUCACCAUGCAGGUGGGCAUCUUUGGGAAGUGGGGCAAGGGGGGGAUAGGGAGGGGGGUAACACUUUGGGAACAGGUGGUCCCAGGUCGUUACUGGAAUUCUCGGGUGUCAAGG` gave a log2 enrichment of 1.14.
`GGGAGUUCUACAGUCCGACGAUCUGCUUCAGACCAAGCGGAGCUCCCGGAGGCAAAGCCUGGAGCUGCAGAAGUGUGAAGAGAUCCUCCACAAGAUCGUGAAGUACCGCUUCAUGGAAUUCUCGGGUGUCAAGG` gave a log2 enrichment of -1.98.
With `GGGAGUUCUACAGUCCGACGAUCAGUCCUGUGCUACACAUCGUAUGUACCGAAUCGGUUUUUUUGGAAAAAAAGGAAAGGAAAGUAUUAUGUUACGCCGUUCGGAUCUGCACUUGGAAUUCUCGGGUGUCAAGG` the log2 enrichment was -1.47.
`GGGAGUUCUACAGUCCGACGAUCUGGGAGGUGGAUUUUGUUUAUUUUUUUAGCUCAUUCCCAGGGGUGGGAAUUUUUUUUUAAUAUGUGUCAUGAAUAAAGUUGUUUUUGAAAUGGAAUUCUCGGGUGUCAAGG` has a log2 enrichment of -0.201.
`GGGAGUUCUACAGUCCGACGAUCUAACUUUAAAGGAGGAUCUGAUGGAUAUGGCAGUGGACGUGGAUUUGGGGAUGGCUAUAAUGGGUAUGGAGGAGGACCUGGAGGUGGCAAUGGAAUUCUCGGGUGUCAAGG` gave a log2 enrichment of 0.332.
The log2 enrichment of `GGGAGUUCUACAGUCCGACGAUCCACAGACAACACGCACCCACACAGACACAGAGGGAAGGGGUUGGGAUGGGGACAGGGUGCACAGCAGGGUGGGGUAGGACCCCAGCCCCUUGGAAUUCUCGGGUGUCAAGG` is reported as 1.82.
The log2 enrichment of `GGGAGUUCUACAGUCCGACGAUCUAAUUUAGAUCUUAAAGAAAAAGUGGAGCCUGAGGUUCUCAGCACUGAUACCCAAACUUCCCCAGAGCCAGGCACAAGGAUGAACAUUCUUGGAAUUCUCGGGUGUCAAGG` is reported as -0.528.

Block 2
Target: ABI1, truncated, D143A, DHFR fusion (Arabidopsis thaliana)
Method: DHFR PCA, deep sequencing
Sample: yeast
Notes: methotrexate growth selection, single substitutions
Added: (+)-ABA 0.39 µM
Reference: wild-type fitted maximum
Direction: higher = stronger binding
Parent: PYL1, truncated, DHFR fusion (Arabidopsis thaliana); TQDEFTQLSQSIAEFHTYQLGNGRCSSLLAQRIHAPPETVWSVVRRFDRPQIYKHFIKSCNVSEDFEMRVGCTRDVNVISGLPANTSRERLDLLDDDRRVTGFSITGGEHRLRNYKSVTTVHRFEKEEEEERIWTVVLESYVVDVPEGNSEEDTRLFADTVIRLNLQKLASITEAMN
Under “relative binding score”, `G71H` is recorded as -3.13%.
For `T6Y`, “relative binding score” read 36%.
Under “relative binding score”, `G81H` is recorded as -9.71%.
Under “relative binding score”, `K54C` is recorded as -9.29%.
For `A30R`, “relative binding score” read 17.5%.
Under “relative binding score”, `H122I` is recorded as -12.2%.
Under “relative binding score”, `R163K` is recorded as 54.3%.
Under “relative binding score”, `N77H` is recorded as 70.2%.
Under “relative binding score”, `E67H` is recorded as 13.9%.
`E174H` — result for “relative binding score”: 4.91%.
`N149A` — result for “relative binding score”: 54.4%.
`C25T`: “relative binding score” 56.7%.
`R111N`: “relative binding score” 4.26%.
For `G23Q`, “relative binding score” read 11%.
`P37D`: “relative binding score” 6.13%.
`Q167C`: “relative binding score” 22.8%.

Block 3
Target: CCNE2, cyclin fold, Cln2 fusion (human)
Method: yeast growth competition, sequencing
Sample: yeast
Notes: weak parent motif
Reference: not given
Direction: higher = stronger binding
Parent: CDC6 docking peptide (human); TLKGRRLVFDNQL; partner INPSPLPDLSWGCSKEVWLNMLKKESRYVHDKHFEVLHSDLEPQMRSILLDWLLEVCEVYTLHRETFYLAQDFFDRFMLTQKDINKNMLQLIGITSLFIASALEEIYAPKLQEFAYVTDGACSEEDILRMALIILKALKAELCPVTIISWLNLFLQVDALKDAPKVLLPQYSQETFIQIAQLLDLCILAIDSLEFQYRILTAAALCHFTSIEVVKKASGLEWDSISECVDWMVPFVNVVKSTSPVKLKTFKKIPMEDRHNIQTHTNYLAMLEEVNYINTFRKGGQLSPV
`K3S` — result for “normalised enrichment score”: 0.358.
For `L13F`, “normalised enrichment score” read 0.228.
For `G4F`, “normalised enrichment score” read -0.307.
`K3R`: “normalised enrichment score” 1.12.
Under “normalised enrichment score”, `T1E` is recorded as 0.876.
Under “normalised enrichment score”, `K3P` is recorded as 0.483.
For `R5Q`, “normalised enrichment score” read -0.606.
`Q12D`: “normalised enrichment score” 0.614.
For `L7Q`, “normalised enrichment score” read 0.788.
`Q12V` — result for “normalised enrichment score”: 0.325.
`K3D` — result for “normalised enrichment score”: -0.363.
`R5M` — result for “normalised enrichment score”: 0.491.
`R5E` — result for “normalised enrichment score”: -0.0154.
`R6F`: “normalised enrichment score” -0.441.
Under “normalised enrichment score”, `N11S` is recorded as 0.0838.
For `Q12T`, “normalised enrichment score” read 0.217.
`N11Y` — result for “normalised enrichment score”: 1.22.
`R5V` — result for “normalised enrichment score”: 0.865.
Under “normalised enrichment score”, `R6I` is recorded as -0.0789.

Block 4
Target: RNA binding protein fox-1 homolog 2, RRM domain, GST-SBP tag (RBFOX2, Homo sapiens, UniProt O43251-10, residues 100-194)
Method: RNA Bind-n-Seq
Form: RNA
Sample: in vitro
Concentration: 365 nM
Notes: natural RNA segment, single round, ends assumed
Reference: no-protein control
Direction: higher = stronger binding
Residues (chain): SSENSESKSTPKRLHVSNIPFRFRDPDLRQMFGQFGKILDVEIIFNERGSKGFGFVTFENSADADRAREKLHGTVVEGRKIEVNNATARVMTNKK
`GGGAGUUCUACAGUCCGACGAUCCUCUGGCCUUGCUCUUUCAAGUCUUGUUUGAAAAAUAAUCCAGUCAGCUGACUUCCAGUACUGUGAAUCCGCCCCUGUCAGAAGUGGCUGACCCUGUUUCUCCUCAGAUGUGGAAUUCUCGGGUGCCAA`: “RBNS enrichment (R)” 0.342.
Under “RBNS enrichment (R)”, `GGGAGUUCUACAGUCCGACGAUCACCCUUGGGUUUGCCUUAGAACACUGACACUAAGAACCUGGAAUGACAUGGGGAGGACAAAGAGAGCUCAAGAGGAAUGCUUUGUGAGAAGUGGAUUCUCUCCGUGUCCCUGGAAUUCUCGGGUGCCAA` is recorded as 1.46.
For `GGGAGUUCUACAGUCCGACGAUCGUCUGGAAGCGUAUGGAAUCAGAAAUAAUCCUCAGUGUAAAAUGUCUUGUGAUUUUUCUCUGUGAAUCCGUGGGUCUGGCUAGAAGGCCCAAUGCUGUAAAUAUGGGGAUUGGAAUUCUCGGGUGCCAA`, “RBNS enrichment (R)” read 2.3.
Under “RBNS enrichment (R)”, `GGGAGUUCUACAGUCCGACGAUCAUUAACUCCCCUUUCCCUCAAACUCUCACGGCCUGAUGAUUGUCCCUCUCAGGGAUGAGACAUGGACAGGUCUCUGGAACGUUAUGGGUAAUGAGCCCCAGCAACUGUCCUGGAAUUCUCGGGUGCCAA` is recorded as 0.296.
Under “RBNS enrichment (R)”, `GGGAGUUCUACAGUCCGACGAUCUGAGAAGCAAGAACUUUUUCGGCGCGUAAUGGAAGAUAACGAAGAGGUGUCGUUCUUUUGUGACGUCAGCGUAUGUGUACCUAUUCCUUUGUUUGCGGUGUACUGAGGGAUGGAAUUCUCGGGUGCCAA` is recorded as 1.89.
Under “RBNS enrichment (R)”, `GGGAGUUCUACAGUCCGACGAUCAGGGAAUGUGCAGGAACAGAGGCGUCUUCCUGGGUUUGGCUCCCCGUUCCUCACUUUUCCCUUUUCAUUCCCACCCCCUAGACUUUGAUUUUACGGAUAUCUUGCUUCUGUGGAAUUCUCGGGUGCCAA` is recorded as 0.355.
`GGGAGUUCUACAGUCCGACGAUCAGGGUUCUUAUUUGAGGCUUUGCUAGGCUCAUCUGCUGUGUCCUGGGUAGUCCACUCAUAUUCUUGCAGGGUGAGUCCAUGCUCAGGAGAAUGCGGUCCACCUUUCUAUGUGGAAUUCUCGGGUGCCAA` — result for “RBNS enrichment (R)”: 1.03.
`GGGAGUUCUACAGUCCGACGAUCGUCCCACAACACUGCCAAAAAUCUGUGUAUGUGCCAUUGGGUGGGGCAGCCCCAAGCCUCCUGGGGAGGCAGGGCAAAAACAGGUGCCCUCAUCGUGGUCUGUGCCAUGUUGGAAUUCUCGGGUGCCAA`: “RBNS enrichment (R)” 1.53.
`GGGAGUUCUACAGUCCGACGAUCGUGACCUGUUGACGUAACUAAGCCUUACAGCAAGGCAUGUGCCGCACGUGCUCCGUGGUACUUAGAGCCCUGGGGGCCCCGCUCGGACUCCGGGUCUCCCUAGGAUAUGCUGGAAUUCUCGGGUGCCAA` — result for “RBNS enrichment (R)”: 0.565.
`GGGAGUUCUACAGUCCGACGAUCUGUUCUUGAACAGAUACUAUGUCUAUAACUCAGAUCGCACCAAACUUCCUGUGGUGACAGACUCUUCCAUUUCAGACUGGUUUUAACUUAUCCCAGCUUUACAAAAACUCUGGAAUUCUCGGGUGCCAA` — result for “RBNS enrichment (R)”: 0.311.
For `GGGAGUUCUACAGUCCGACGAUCCAAUUACAGAGCACAAUGACUGUCGUUGGAUAUAUAUGUAUAUGUAUAUGUAUAUUAUAUGUAUAUGUACACAUAUAUAUUCUAUUAUUAGGCAUACAAGUGGCUCCUGUUGGAAUUCUCGGGUGCCAA`, “RBNS enrichment (R)” read 0.298.
`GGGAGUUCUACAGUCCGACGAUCUCUGCCUCUGACACACCCUUCUCGCUGCCCUGAGCCCCGGAGGCAGCCAUGGGAGGCAGCCUGCAUACCUGGAAGCCAGCUGCACAGUGCUGUGGGGAAACAGAAGCGUUUGGAAUUCUCGGGUGCCAA`: “RBNS enrichment (R)” 0.378.

Block 5
Target: Histone acetyltransferase KAT6A, both winged helices, GST fusion (KAT6A, Homo sapiens, UniProt Q92794, residues 1-181)
Method: protein binding microarray
Form: double-stranded DNA, one strand shown
Sample: in vitro
Concentration: not given
Notes: 8-mer, flanks averaged, mean of 2 arrays, mostly near background
Reference: not given
Direction: higher = stronger binding
Construct (chain): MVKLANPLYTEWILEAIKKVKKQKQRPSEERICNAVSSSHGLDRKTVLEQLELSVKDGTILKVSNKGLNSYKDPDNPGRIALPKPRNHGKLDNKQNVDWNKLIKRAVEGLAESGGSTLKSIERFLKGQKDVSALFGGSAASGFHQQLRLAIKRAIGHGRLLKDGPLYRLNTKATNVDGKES
`GCGTCAGA` gave an E-score of 0.0282.
For `GATTTGGA`, the E-score was -0.109.
`AATCCCAT` has an E-score of -0.0957.
`CAAAAAGA` gave an E-score of -0.121.
For `ACTAAGTG`, the E-score was -0.177.
For `CGCAAACC`, the E-score was 0.171.
`AATTGCGT` gave an E-score of 0.222.
The E-score of `AAGCTAGT` is reported as -0.156.
For `AGAAATTC`, the E-score was 0.0342.
With `ACCCTGCG` the E-score was -0.0773.
`TACCCGAA` gave an E-score of 0.181.
The E-score of `AGACTGCC` is reported as 0.103.
For `GCGTGACA`, the E-score was 0.1.
`TCCGGCAA` has an E-score of 0.0804.
`CGGACAGA` gave an E-score of 0.178.
`CCAGGGGC` gave an E-score of -0.0616.
The E-score of `ACCGACCA` is reported as -0.124.
`ACGGAATC` has an E-score of 0.307.
The E-score of `TGGATAAA` is reported as -0.00602.
With `ACAGCTGT` the E-score was -0.154.
For `CAGAGCGC`, the E-score was 0.277.
For `AGCCTGTC`, the E-score was -0.0186.
For `CGCCCTGA`, the E-score was 0.094.
`CCTACCCA` gave an E-score of -0.223.
`GCGGCCTA` has an E-score of 0.208.

Some of these lines once more (block 2):
Under “relative binding score”, `R163K` is recorded as 54.3%.
For `A30R`, “relative binding score” read 17.5%.
Under “relative binding score”, `K54C` is recorded as -9.29%.
Under “relative binding score”, `G81H` is recorded as -9.71%.
Under “relative binding score”, `G71H` is recorded as -3.13%.
